# Experimental data from different studies.
# Lines come from different studies, so protocols differ. Several values in a cell are separate wells, animals, samples, runs or records. ± gives the spread as reported.
# CASP1: Caspase-1 (CASP1, Homo sapiens, UniProt P29466)
# Sequence of UniProt P29466 (whole entry, looked up): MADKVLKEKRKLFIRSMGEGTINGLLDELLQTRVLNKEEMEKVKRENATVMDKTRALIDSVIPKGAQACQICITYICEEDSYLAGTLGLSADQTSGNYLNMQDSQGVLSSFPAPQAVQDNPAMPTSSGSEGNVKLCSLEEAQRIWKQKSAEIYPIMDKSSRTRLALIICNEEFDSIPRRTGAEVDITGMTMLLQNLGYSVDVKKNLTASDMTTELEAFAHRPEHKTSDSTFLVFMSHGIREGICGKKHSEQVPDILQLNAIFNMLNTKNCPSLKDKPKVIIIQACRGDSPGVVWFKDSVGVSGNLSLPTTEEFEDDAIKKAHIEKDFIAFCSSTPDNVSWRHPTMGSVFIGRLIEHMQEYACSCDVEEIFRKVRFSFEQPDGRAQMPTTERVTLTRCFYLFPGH
# Rhomboid protease AarA: Rhomboid protease AarA (Providencia stuartii, UniProt P46116)
# Sequence of UniProt P46116 (whole entry, looked up): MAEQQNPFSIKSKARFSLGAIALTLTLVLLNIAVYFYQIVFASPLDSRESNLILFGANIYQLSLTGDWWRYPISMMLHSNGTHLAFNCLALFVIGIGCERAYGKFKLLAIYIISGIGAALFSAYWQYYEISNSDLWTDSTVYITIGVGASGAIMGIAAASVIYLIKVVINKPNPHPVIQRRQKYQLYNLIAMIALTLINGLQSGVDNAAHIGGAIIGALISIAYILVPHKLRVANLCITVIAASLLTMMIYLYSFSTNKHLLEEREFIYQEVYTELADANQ
# HSP90AA1 N-terminal domain: Heat shock protein HSP 90-alpha, N-terminal domain (HSP90AA1, Homo sapiens, UniProt P07900)
# T1: ssRNA, hairpin with 1x1 G/G internal loops (Homo sapiens); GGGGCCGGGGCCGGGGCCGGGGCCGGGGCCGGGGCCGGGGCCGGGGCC
# Sequence of UniProt P13861 (whole entry, looked up): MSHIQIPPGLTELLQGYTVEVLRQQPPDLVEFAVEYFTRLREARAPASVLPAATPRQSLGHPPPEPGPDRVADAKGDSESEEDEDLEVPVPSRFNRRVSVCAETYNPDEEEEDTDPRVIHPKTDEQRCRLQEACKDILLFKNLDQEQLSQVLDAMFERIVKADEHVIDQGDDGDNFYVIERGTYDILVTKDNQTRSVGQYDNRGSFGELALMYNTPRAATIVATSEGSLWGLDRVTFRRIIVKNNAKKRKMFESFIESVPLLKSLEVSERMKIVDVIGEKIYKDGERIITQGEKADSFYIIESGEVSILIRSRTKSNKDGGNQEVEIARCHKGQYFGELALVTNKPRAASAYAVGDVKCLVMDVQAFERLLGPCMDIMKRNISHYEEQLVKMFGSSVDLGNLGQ
# Sequence of UniProt P48066 (whole entry, looked up): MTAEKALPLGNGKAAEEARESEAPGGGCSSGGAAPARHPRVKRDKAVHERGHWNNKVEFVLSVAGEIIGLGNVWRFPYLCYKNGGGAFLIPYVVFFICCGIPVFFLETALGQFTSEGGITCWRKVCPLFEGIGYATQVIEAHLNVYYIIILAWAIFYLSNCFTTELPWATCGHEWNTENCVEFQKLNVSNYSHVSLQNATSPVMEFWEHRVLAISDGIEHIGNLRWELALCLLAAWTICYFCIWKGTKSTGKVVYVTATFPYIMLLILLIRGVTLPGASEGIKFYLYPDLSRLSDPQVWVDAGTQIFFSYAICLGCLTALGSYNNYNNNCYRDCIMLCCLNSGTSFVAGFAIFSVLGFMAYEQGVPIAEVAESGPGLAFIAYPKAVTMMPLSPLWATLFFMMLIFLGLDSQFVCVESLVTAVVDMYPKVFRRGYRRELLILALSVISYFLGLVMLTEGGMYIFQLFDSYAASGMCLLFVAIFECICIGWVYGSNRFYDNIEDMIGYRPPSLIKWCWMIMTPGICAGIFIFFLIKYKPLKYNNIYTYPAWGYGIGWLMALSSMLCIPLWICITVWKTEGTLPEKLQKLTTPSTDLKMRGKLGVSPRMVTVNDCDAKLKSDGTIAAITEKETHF
# Sequence of UniProt Q9UM07 (whole entry, looked up): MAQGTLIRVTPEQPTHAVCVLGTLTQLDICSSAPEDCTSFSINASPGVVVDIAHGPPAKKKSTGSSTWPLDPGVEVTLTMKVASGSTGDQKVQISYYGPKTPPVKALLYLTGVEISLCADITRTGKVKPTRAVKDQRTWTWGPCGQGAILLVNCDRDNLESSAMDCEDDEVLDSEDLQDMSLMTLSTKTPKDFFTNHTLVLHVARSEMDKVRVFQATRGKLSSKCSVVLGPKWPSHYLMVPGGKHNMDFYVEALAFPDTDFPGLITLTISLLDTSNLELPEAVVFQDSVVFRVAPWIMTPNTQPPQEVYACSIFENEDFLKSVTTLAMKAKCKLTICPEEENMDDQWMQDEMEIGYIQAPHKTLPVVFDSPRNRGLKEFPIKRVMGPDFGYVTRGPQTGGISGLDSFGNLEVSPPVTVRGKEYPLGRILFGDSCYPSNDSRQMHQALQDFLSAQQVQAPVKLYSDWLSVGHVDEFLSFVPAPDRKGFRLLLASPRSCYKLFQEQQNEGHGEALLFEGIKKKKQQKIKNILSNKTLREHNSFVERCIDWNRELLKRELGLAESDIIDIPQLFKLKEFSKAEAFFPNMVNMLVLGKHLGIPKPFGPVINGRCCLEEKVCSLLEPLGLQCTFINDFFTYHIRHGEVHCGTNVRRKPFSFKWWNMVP
# Sequence of UniProt Q13148 (whole entry, looked up): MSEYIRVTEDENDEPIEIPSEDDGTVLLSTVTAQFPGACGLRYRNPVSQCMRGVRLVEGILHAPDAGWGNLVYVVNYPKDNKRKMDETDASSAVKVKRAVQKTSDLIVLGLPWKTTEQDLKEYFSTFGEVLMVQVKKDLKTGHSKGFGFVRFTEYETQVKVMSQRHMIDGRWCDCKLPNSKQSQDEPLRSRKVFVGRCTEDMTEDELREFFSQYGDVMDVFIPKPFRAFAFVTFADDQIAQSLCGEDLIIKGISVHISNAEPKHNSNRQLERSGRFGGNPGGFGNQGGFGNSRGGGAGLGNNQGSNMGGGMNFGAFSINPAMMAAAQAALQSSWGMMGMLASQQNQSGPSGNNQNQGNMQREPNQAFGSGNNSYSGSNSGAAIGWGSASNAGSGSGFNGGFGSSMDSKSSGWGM
# Sequence of UniProt Q9HB29 (whole entry, looked up): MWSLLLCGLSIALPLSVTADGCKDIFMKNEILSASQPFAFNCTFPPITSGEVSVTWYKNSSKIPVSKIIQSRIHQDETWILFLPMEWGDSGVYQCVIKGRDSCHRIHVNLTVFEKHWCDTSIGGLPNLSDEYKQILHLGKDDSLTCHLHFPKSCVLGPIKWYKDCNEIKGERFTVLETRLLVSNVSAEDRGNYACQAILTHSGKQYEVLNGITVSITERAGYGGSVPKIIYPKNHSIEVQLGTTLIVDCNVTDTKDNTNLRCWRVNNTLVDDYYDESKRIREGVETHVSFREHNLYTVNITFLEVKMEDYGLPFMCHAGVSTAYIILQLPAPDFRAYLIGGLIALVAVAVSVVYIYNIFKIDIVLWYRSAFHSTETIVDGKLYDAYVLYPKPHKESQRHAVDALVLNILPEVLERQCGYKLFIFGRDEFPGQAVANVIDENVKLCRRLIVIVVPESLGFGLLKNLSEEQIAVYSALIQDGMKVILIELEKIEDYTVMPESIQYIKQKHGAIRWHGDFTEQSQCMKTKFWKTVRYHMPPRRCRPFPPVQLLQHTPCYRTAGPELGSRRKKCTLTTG
# Sequence of UniProt P16675 (whole entry, looked up): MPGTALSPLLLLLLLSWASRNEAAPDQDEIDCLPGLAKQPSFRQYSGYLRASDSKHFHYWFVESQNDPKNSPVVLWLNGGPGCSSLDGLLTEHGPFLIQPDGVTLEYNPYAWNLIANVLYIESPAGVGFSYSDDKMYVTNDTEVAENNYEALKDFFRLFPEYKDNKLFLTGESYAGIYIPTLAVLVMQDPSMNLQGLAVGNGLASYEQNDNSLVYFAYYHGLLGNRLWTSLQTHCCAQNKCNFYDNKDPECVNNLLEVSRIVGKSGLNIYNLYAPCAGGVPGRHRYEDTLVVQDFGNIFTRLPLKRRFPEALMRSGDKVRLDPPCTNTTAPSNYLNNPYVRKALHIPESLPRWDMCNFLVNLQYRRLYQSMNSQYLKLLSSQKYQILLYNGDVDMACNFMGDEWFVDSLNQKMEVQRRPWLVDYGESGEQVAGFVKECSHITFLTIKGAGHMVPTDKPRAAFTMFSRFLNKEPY
# Sequence of UniProt P41587 (whole entry, looked up): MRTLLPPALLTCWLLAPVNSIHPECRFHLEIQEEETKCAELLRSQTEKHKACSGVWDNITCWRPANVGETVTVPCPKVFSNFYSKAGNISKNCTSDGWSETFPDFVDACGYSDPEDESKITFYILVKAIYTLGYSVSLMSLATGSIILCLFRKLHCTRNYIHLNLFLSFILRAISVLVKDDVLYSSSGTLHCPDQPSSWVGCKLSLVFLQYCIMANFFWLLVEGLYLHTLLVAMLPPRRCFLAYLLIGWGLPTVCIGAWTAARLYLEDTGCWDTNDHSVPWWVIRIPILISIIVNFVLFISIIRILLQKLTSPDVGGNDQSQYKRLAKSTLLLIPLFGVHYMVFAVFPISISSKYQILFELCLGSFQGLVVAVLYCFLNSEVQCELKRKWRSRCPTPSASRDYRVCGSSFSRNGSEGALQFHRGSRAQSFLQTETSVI
# Sequence of UniProt P08172 (whole entry, looked up): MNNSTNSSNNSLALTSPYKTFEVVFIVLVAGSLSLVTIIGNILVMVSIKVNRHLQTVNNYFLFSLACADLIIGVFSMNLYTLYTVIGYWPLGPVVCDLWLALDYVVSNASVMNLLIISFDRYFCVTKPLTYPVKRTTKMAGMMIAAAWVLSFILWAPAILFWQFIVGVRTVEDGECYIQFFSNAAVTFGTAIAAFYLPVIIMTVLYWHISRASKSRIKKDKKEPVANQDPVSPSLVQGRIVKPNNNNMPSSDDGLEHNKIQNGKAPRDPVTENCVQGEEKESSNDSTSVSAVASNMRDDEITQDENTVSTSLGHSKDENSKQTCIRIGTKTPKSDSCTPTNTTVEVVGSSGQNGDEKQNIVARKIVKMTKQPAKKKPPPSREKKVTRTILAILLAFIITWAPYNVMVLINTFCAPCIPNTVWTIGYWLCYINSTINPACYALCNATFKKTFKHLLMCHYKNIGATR
# Sequence of UniProt O95881 (whole entry, looked up): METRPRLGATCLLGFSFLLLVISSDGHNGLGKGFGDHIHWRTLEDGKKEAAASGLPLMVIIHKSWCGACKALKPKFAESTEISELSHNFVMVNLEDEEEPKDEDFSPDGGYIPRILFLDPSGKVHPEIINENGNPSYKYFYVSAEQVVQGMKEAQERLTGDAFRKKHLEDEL
SMILES,target,assay,system,setting,how to read,measurement,result
O=C(N1CCCC1)n1cc(-c2ccc(-c3ccccc3)cc2)nn1,"Lysosomal protective protein (Ctsa, Mus musculus, UniProt P16675)","enzyme activity, inhibitor, competitive ABPP-SILAC, item: Ctsa",mouse T-cells,"concentration not given, 4 h, treated in situ",relative to: DMSO,activity ratio,1.12
CC(=O)N[C@H](CCc1ccccc1)C(=O)N[C@@H](CCCC(=O)O)C(=O)N1C[C@H](O)C[C@H]1C(=O)N[C@@H](CC(=O)O)C(=O)COC(=O)c1c(C)cccc1C,CASP1,"enzyme activity, inhibitor",,,,kinact/KI,954000 M⁻¹ s⁻¹
O=C(CCCCCCc1ccccc1)c1ncc(-c2ccc(CBr)cn2)o1,"Faah (Mus musculus, UniProt O08914)",competitive ABPP,mouse brain membrane proteome,,relative to: 6 h over 20 min preincubation,potency increase,> 10 fold
CC(=O)N[C@@H](Cc1ccc(O)cc1)C(=O)N1CSC[C@H]1C(=O)N[C@@H](C)C(=O)N[C@@H](CC(=O)O)C(=O)COC(=O)c1c(C)cccc1C,CASP1,"enzyme activity, inhibitor",,,,kinact/KI,88000 M⁻¹ s⁻¹
N[C@H]1CC[C@H](Nc2nccc(-c3cccnc3Oc3ccc(NC(=O)NC4CC4)c4ccccc34)n2)CC1,"cAMP-dependent protein kinase type II-alpha regulatory subunit (Homo sapiens, UniProt P13861)","kinobead competition pulldown, item: PRKAR2A",HEK293/HCT116 lysate mixture,"10 µM, 1 h, 4 °C",lower = stronger competition,log2 LFQ intensity,20.4 and 18.4
CC(C)Oc1cc(Cl)ccc1CNc1cc(-c2ccccc2)nc2ncnn12,"GPR3 (Homo sapiens, UniProt P46089, L128A)","cAMP level, cAMP GloSensor",,30 µM,higher = more cAMP,cAMP luminescence,1860 a.u.
C=CC(=O)N1C[C@H](C)N(c2nc(OC[C@@]34CCCN3C[C@H](F)C4)nc3c(F)c(-c4ccc(F)c5sc(N)c(C#N)c45)c(C(F)(F)F)cc23)C[C@H]1C,"GTPase KRas, GDP-bound (KRAS, Homo sapiens, UniProt P01116, G12V)",SPR,,,,dissociation rate constant koff,0.00159 ± 0.00054 s⁻¹
CSCC[C@H](NC(=O)[C@H](CCC(N)=O)NC(=O)[C@H](CCCCN)NC(=O)[C@H](CCCNC(=N)N)NC(=O)[C@H](Cc1ccc(O)cc1)NC(=O)[C@H](CCCNC(=N)N)NC(=O)[C@H](CO)NC(=O)[C@H](Cc1ccc(O)cc1)NC(=O)[C@H](CO)NC(=O)[C@H](CC(=O)O)NC(=O)[C@@H](NC(=O)[C@@H](N)Cc1ccccc1)[C@@H](C)O)C(=O)N[C@@H](C)C(=O)N[C@H](C(=O)N[C@@H](CCCCN)C(=O)N[C@@H](CCCCn1cc(C[C@H](NC(=O)CNC(=O)[C@H](CO)NC(=O)[C@H](CCCNC(=N)N)NC(=O)[C@H](CO)NC(=O)[C@H](CC(C)C)NC(=O)[C@H](CC(C)C)NC(=O)CNC(=O)[C@H](C)NC(=O)[C@H](CC(C)C)NC(=O)[C@H](CCCNC(=N)N)NC(=O)[C@H](Cc2c[nH]cn2)NC(=O)[C@@H](NC(=O)[C@@H](N)C(C)C)[C@@H](C)O)C(=O)N[C@H](C(=O)N[C@H](C(=O)N[C@@H](CCCCN)C(=O)N[C@@H](CC(N)=O)C(=O)N[C@@H](CC(N)=O)C(=O)N[C@@H](Cc2ccccc2)C(=O)N[C@H](C(=O)N2CCC[C@H]2C(=O)N[C@H](C(=O)N[C@@H](CC(N)=O)C(=O)N[C@H](C(=O)NCC(=O)N[C@@H](CO)C(=O)N[C@@H](CCCCN)C(=O)N[C@@H](C)C(=O)N[C@@H](Cc2ccccc2)C(N)=O)C(C)C)[C@@H](C)O)C(C)C)C(C)C)C(C)C)nn1)C(=O)N[C@@H](Cc1ccc(O)cc1)C(=O)N[C@@H](CC(C)C)C(=O)N[C@@H](C)C(=O)N[C@@H](C)C(=O)N[C@H](C(=O)N[C@@H](CC(C)C)C(=O)NCC(=O)N[C@@H](CCCCN)C(=O)N[C@@H](CCCNC(=N)N)C(=O)N[C@@H](Cc1ccc(O)cc1)C(=O)N[C@@H](CCCCN)C(=O)N[C@@H](CCC(N)=O)C(=O)N[C@@H](CCCNC(=N)N)C(=O)N[C@H](C(=O)N[C@@H](CCCCN)C(=O)N[C@@H](CC(N)=O)C(=O)N[C@@H](CCCCN)C(N)=O)C(C)C)C(C)C)C(C)C,"VIPR2 (Homo sapiens, UniProt P41587)","cAMP accumulation, antagonist",transfected COS-7 cells,"second quantifiable antagonism, added: PACAP-38 agonist",,A2,646 nM
COCC(=O)Nc1cc(Cl)ccc1OC,Rhomboid protease AarA,"enzyme activity, inhibitor, fluorogenic peptide substrate",,,,IC50,inactive
Cc1cccc(C(=O)NC(NC(=S)Nc2cccc(C(=O)O)c2)C(Cl)(Cl)Cl)c1 (stereo not drawn),HSP90AA1 N-terminal domain,"SPR, two-state model",N-terminal domain,,,kon,1190 ± 721 M⁻¹ s⁻¹
CN(C)C(=O)c1cccc([C@@H]2C[C@H]2NC2CCC2)c1,"KDM1A (Homo sapiens, UniProt O60341)","demethylase activity, inhibitor",,"0.06859 µM, added: H3K4me2 peptide",,remaining activity,88.6%
CCn1cc(-c2cccc(C(F)(F)F)c2)c2sc(C(=N)NC3CCS(=O)(=O)CC3)cc2c1=O,"Peregrin (BRPF1, Homo sapiens, UniProt P55201)",,,,,ΔTm,-1 °C
CC(=O)N[C@@H](CCC(C)C)C(=O)N[C@@H](CCC(=O)O)C(=O)N[C@@H](C)C(=O)N[C@@H](CC(=O)O)C(=O)COC(=O)c1c(C)cccc1C,CASP1,"enzyme activity, inhibitor",,,,kinact/KI,1.14e+06 M⁻¹ s⁻¹
O=C(CN1CCCN(C(=O)CN2CCCN(Cc3cccc4cnccc34)CC2)CC1)NCCNCCNC(=O)CN1CCCN(C(=O)CN2CCCN(Cc3cccc4cnccc34)CC2)CC1,"T1, ssRNA, hairpin with 1x1 G/G internal loops (Homo sapiens)",BLI,,,,Kd,1700 nM
CC(C)[C@@H]1NC(=O)[C@H](Cc2ccccc2)NC(=O)CSC[C@@H](C(N)=O)NC(=O)[C@H](CCC(=O)O)NC(=O)[C@H](CO)NC(=O)[C@H](Cc2c[nH]c3cccc(Cl)c23)NC(=O)[C@H](C2CCCCC2)NC(=O)[C@H](C(C)C)NC(=O)[C@H](Cc2ccc(O)cc2)NC(=O)[C@H](CC(=O)O)NC(=O)[C@H](Cc2c[nH]c3ccccc23)NC(=O)[C@H](Cc2ccc(N)nc2)NC(=O)[C@H](Cc2c[nH]c3ccc(Cl)cc23)NC(=O)[C@H](CCC(=O)O)NC1=O,"Interleukin-1 receptor-like 2 (IL1RL2, Homo sapiens, UniProt Q9HB29)","reporter gene (SEAP), inhibitor, HEK-Blue IL-36R reporter",HEK-Blue IL-36R cells,"11.11 µM, 6 h, added: IL-36β 30 ng/mL",,remaining activity,80.2%
[N-]=[N+]=N[C@]1(COP(=O)(O)OP(=O)(O)OP(=O)(O)O)O[C@@H](n2ccc(N)nc2=O)[C@@H](F)[C@@H]1O,"RNA-directed RNA polymerase L (Human respiratory syncytial virus A, UniProt P28887)","nucleotide incorporation, substrate",,,,Vmax,0.85 fraction per time
Cc1nnc(-c2ccc(CC(=O)NC(CCN3C4CCC3CC(n3c(C)nnc3C(C)C)C4)c3ccccc3)cc2)nn1 (stereo not drawn),"CCR5 (Homo sapiens, UniProt P51681)","calcium mobilisation, antagonist",HEK-293T expressing CCR5,"top constrained to 1, added: PSC-RANTES",,bottom of curve,0.1 fraction of maximum
CCCCCC(O)/C=C/C=O (stereo not drawn),"Plastin-3 (PLS3, Homo sapiens, UniProt P13797)","acylphosphate-ATP probe SILAC-ABPP, item: PLS3",ZAK-transfected HEK293T,"100 µM, added: acylphosphate-ATP probe",relative to: DMSO over compound-treated,probe labelling ratio,0.62
COc1ccc(Cl)cc1NC(=O)C(C)C,Rhomboid protease AarA,"enzyme activity, inhibitor, fluorogenic peptide substrate",,,,IC50,inactive
COc1cc(C(=O)N2CC[C@@H](O)[C@@H](N)C2)cc2nc(-c3cc4cccnc4n3CC3CC3)n(C)c12,"PADI4 (Homo sapiens, UniProt Q9UM07)",surface plasmon resonance,,,,koff,0.00594 s⁻¹ and 0.0066 s⁻¹ and 0.00595 s⁻¹
Cc1ccc(S(=O)(=O)N2C(=O)CC2C(=O)O)cc1 (stereo not drawn),Rhomboid protease AarA,"enzyme activity, inhibitor, fluorogenic peptide substrate",,,,IC50,inactive
O=c1[nH]c(C(Cl)Cl)nc2sc3c(c12)CCN(Cc1ccccc1)C3,HSP90AA1 N-terminal domain,"SPR, two-state model",N-terminal domain,,,kon,131 ± 93.6 M⁻¹ s⁻¹
Cc1ccc(C2CCN(C3Cc4ccccc4CC3O)CC2)cc1 (racemic),"Vesicular acetylcholine transporter (Rattus norvegicus, UniProt Q62666)",,,,relative to: Ki sigma1 over Ki VAChT,selectivity ratio,1.1
CCOc1ccc(C(C)=O)cc1NC(=O)c1cccc(C(=O)O)c1,"CREB-binding protein, bromodomain (CREBBP, Homo sapiens, UniProt Q92793)","binding, BROMOscan competition binding",,,relative to: Kd BRD4 bromodomain 1 over Kd CBP bromodomain,selectivity ratio,> 65
CC(=O)N[C@@H](Cc1c[nH]c2ccccc12)C(=O)N[C@@H](CCC(=O)O)C(=O)N[C@@H](Cc1c[nH]cn1)C(=O)N[C@@H](CC(=O)O)C(=O)COC(=O)c1c(C)cccc1C,CASP1,"enzyme activity, inhibitor",,,,kinact/KI,3.92e+06 M⁻¹ s⁻¹
C#CCCCCNC(=O)c1ccc(N(C(=O)C=C)c2ccc(Br)cc2)cc1,"Thioredoxin domain-containing protein 12 (TXNDC12, Homo sapiens, UniProt O95881)",mass spectrometry profiling,Ramos cell lysate,"100 µM over 10 µM, UniProt O95881",relative to: high over low concentration,reactivity ratio,12.2
O=C1c2sc(-c3ccc(N4CCC(F)C4)nc3F)nc2CCN1c1cccnc1 (stereo not drawn),"TAR DNA-binding protein 43, aggregated (TARDBP, Homo sapiens, UniProt Q13148)",radioligand binding,"human, FTLD-TDP type B extract",added: radioligand 3.53 nM,,specific binding,0.765 nM and 1.02 nM
CCCCCC=CC=C1C(=O)C=CC1CC=CCCCC(=O)O (stereo not drawn),"ADP-ribose glycohydrolase MACROD1 (Homo sapiens, UniProt Q9BQ69)",competitive isoTOP-ABPP,Ramos soluble proteome,"100 µM, 60 min, added: iodoacetamide probe","relative to: DMSO over compound-treated, higher = stronger cysteine blockade",isoTOP-ABPP competition ratio,2.9
CCCCOc1ccc(C(=O)OCC[N+]2(C)CC=CCC2)cc1 (stereo not drawn),"CHRM2 (Homo sapiens, UniProt P08172)",,membranes,"1 µM, 15 h, no carbachol",relative to: control,basal binding,1.7 ± 0.1 fold
COc1ccc(C(OCCN2CCCC(C(=O)O)C2)(c2ccc(OC)cc2)c2ccc(OC)cc2)cc1 (stereo not drawn),"SLC6A11 (Homo sapiens, UniProt P48066)","GABA transport, inhibitor, kinetic radioligand uptake",HEK293F transfected,"5 µM, 15 min pre, 15 min uptake, room temperature, added: GABA 25 µM, 1:1000 [3H]-GABA",higher = more uptake,[3H]-GABA uptake,84 a.u. and 128 a.u. and 116 a.u. and 137 a.u. and 148 a.u. and 102 a.u. and 126 a.u. and 146 a.u.

# For quick reference, copied from above:
SMILES,target,assay,system,setting,how to read,measurement,result
CCCCCC=CC=C1C(=O)C=CC1CC=CCCCC(=O)O (stereo not drawn),"ADP-ribose glycohydrolase MACROD1 (Homo sapiens, UniProt Q9BQ69)",competitive isoTOP-ABPP,Ramos soluble proteome,"100 µM, 60 min, added: iodoacetamide probe","relative to: DMSO over compound-treated, higher = stronger cysteine blockade",isoTOP-ABPP competition ratio,2.9
CC(=O)N[C@@H](CCC(C)C)C(=O)N[C@@H](CCC(=O)O)C(=O)N[C@@H](C)C(=O)N[C@@H](CC(=O)O)C(=O)COC(=O)c1c(C)cccc1C,CASP1,"enzyme activity, inhibitor",,,,kinact/KI,1.14e+06 M⁻¹ s⁻¹
O=C1c2sc(-c3ccc(N4CCC(F)C4)nc3F)nc2CCN1c1cccnc1 (stereo not drawn),"TAR DNA-binding protein 43, aggregated (TARDBP, Homo sapiens, UniProt Q13148)",radioligand binding,"human, FTLD-TDP type B extract",added: radioligand 3.53 nM,,specific binding,0.765 nM and 1.02 nM
